Results collected from several papers.
A part holds a random share of what one study measured. Values joined by “and” are separate records of one study, mostly repeats; a detail may differ.
Sequence of UniProt Q9UEE5 (whole entry, looked up): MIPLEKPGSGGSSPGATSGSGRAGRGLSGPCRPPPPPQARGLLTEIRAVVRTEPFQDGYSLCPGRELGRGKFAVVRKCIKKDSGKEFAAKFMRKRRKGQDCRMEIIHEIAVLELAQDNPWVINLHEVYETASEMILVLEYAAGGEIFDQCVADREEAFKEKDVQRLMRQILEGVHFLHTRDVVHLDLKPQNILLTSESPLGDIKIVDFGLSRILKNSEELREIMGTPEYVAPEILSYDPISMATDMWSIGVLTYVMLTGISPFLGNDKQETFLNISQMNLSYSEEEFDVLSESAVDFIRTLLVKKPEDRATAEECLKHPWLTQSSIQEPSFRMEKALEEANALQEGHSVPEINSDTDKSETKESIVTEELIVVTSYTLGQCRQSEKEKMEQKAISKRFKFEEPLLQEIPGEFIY
Sequence of UniProt Q9BRS2 (whole entry, looked up): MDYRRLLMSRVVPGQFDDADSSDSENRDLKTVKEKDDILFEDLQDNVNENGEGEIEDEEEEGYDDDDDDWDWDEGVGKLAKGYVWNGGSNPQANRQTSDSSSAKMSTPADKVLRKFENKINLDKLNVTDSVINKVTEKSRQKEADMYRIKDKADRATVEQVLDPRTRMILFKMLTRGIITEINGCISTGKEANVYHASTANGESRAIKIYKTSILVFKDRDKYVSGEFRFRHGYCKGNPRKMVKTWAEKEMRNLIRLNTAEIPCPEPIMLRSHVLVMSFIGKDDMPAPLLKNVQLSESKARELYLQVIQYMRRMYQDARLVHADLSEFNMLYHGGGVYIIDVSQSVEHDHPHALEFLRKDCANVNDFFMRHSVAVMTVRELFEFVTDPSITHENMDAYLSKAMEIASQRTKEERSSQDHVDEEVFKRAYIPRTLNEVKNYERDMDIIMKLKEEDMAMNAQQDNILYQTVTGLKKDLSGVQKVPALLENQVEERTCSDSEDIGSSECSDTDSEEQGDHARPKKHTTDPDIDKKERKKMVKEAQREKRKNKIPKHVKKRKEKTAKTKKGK
Sequence of UniProt Q07002 (whole entry, looked up): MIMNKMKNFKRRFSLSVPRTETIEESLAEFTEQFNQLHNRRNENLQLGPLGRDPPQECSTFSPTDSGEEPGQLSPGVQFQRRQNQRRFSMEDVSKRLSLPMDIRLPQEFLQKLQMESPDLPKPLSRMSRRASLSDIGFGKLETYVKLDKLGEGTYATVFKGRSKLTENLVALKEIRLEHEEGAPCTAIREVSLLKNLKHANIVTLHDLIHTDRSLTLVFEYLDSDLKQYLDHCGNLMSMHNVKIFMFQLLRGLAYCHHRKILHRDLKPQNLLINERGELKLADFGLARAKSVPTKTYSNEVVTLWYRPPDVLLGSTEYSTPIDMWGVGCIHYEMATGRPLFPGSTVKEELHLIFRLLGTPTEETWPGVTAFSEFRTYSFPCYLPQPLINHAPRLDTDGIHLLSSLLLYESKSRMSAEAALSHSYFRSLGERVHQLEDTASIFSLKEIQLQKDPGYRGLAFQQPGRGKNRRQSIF
Sequence of UniProt Q5S007 (whole entry, looked up): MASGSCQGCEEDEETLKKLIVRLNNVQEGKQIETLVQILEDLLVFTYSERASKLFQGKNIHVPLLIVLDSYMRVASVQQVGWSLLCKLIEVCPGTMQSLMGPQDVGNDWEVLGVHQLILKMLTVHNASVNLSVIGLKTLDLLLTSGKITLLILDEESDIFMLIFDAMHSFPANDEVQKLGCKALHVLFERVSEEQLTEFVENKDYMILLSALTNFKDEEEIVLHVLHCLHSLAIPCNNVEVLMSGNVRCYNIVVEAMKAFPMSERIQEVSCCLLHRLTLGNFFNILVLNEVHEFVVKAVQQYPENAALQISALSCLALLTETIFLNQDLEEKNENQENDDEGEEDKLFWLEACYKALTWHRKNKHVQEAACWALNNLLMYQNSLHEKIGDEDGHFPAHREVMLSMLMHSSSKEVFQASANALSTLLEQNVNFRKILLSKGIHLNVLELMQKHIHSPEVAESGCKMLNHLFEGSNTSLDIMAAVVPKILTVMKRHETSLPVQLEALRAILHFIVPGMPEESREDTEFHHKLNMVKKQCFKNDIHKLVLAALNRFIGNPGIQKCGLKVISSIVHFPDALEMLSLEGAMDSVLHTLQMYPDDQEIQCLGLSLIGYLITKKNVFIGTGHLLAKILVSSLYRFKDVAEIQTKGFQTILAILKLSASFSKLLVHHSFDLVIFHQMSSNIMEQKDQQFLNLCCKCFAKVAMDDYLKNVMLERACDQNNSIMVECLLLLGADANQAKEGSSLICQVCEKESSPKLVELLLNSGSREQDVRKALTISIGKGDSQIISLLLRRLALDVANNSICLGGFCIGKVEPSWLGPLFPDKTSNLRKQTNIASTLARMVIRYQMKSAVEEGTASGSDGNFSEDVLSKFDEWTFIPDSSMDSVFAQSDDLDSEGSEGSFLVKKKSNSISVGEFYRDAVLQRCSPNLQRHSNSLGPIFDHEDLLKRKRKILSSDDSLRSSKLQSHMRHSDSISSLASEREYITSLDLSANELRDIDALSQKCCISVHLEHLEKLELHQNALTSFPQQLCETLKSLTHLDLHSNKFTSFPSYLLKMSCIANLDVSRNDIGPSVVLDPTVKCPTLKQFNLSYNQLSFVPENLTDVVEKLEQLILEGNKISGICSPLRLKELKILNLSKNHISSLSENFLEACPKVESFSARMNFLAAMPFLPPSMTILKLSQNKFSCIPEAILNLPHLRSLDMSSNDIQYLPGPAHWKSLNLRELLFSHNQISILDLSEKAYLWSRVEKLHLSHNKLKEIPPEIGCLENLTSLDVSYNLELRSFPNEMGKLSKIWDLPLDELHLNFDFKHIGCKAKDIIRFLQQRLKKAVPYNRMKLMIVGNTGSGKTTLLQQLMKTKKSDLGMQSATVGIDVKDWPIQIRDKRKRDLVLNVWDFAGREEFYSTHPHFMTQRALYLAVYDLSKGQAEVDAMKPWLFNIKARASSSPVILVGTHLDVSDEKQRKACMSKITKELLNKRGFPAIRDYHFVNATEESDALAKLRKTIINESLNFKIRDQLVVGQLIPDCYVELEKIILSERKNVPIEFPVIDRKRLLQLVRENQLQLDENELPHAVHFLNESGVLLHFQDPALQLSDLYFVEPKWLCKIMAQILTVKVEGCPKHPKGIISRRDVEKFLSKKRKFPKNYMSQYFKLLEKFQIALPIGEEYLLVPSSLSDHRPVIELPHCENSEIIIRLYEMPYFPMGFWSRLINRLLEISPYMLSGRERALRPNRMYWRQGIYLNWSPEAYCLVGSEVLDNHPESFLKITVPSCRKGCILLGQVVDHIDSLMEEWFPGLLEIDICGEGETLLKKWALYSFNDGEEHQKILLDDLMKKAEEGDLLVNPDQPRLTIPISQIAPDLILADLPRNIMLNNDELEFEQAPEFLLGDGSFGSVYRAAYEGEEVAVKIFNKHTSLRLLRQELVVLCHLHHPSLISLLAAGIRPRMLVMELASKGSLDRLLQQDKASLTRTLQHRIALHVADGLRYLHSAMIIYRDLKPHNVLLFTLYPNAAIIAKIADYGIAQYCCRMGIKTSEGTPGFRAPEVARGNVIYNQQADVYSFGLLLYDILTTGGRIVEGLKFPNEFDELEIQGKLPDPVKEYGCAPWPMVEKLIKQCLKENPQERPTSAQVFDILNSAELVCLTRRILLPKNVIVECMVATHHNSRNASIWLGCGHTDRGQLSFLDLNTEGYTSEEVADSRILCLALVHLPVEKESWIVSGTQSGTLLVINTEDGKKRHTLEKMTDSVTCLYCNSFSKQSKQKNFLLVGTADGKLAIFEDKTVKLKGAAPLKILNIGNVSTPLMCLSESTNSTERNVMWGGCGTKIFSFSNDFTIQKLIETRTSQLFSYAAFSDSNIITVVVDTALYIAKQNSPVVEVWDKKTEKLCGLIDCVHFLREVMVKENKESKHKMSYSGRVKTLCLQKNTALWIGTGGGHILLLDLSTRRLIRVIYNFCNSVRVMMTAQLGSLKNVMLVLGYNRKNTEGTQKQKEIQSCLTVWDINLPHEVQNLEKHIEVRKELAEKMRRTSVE

Sample 1
Target: Protein-tyrosine kinase 2-beta (PTK2B, Homo sapiens, UniProt Q14289)
Sequence of UniProt Q14289 (whole entry, looked up): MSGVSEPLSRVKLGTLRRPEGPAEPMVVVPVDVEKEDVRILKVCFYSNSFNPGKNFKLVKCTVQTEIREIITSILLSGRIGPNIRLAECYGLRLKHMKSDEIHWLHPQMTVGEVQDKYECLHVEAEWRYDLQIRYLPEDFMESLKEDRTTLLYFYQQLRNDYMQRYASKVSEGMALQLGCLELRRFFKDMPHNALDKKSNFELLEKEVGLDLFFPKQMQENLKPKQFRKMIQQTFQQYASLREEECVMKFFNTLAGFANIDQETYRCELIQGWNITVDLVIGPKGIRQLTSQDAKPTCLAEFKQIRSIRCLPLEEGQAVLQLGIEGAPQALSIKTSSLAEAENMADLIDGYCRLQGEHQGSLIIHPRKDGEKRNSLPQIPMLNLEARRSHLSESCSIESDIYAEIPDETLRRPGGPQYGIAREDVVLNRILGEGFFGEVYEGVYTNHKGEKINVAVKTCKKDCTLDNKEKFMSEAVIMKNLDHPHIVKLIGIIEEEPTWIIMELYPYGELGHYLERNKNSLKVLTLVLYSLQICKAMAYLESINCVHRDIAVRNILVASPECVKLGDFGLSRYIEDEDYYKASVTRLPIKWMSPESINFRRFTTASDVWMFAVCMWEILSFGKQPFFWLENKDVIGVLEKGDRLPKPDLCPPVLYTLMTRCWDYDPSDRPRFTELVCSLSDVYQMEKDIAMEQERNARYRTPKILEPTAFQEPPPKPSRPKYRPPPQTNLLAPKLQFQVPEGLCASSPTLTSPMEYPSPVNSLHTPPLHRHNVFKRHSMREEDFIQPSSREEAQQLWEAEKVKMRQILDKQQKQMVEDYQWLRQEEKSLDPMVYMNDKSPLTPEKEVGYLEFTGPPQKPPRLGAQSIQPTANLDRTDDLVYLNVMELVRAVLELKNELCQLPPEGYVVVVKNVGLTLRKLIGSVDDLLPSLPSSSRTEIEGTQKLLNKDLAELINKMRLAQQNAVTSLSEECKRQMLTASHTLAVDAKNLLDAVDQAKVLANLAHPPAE
Read-out: enzyme activity
Action: inhibitor
Tested at: 0.5 µM
Relative to: control
Endpoint: remaining activity
CCOC(=O)c1c(C)[nH]c(/C=C2\C(=O)Nc3ccccc32)c1C: 80.6%
O=S(=O)(c1cccc2cnccc12)N1CCCNCC1: 90.6%
COc1cc2nccc(Oc3ccc(NC(=S)NC(=O)c4ccccc4C)cc3)c2cc1OC: 93.4%
COc1ccc(OC)c2c(=S)c3ccccc3[nH]c12: 92.7%
C#Cc1cccc(Nc2ncnc3cc(OCCOC)c(OCCOC)cc23)c1: 97.6%
N#CC(C#N)=C(N)/C(C#N)=C/c1ccc(O)cc1: 97.4%
Cn1sc(=O)n(Cc2ccccc2)c1=O: 91%
O=c1c2ccccc2[nH]c(=S)n1CCN1CCC(=C(c2ccc(F)cc2)c2ccc(F)cc2)CC1: 98.5%
O=C(CCCc1ccc(-c2ccccc2F)cc1)Nc1ccc(O)cc1: 98.8%
COc1ccc(C(=O)Nc2sc3c(c2C(N)=O)CCCC3)cc1OC: 95.5%
O=C1NC(=O)C(c2cn(CCCO)c3ncccc23)=C1c1cnccn1: 94%
Nc1ncnc2n[nH]c(Nc3ccc(F)cc3)c12: 101%
Cc1nc(-c2ccccc2)c(-c2ccncc2)o1: 100%
Cc1ccc(Nc2nccc(N(C)c3ccc4c(C)n(C)nc4c3)n2)cc1S(N)(=O)=O: 92%
CNC(=O)c1cc(Oc2ccc(NC(=O)Nc3ccc(Cl)c(C(F)(F)F)c3)cc2)ccn1: 101%

Sample 2
Compound: CC(=O)N[C@@H](Cc1c[nH]c2ccccc12)C(=O)N[C@@H](CCC(=O)C=[N+]=[N-])C(=O)OC(C)C
Route: subcutaneous
Dose: 0.3 mg/kg/day DON equivalent
Time: 5 days
Direction: higher = more metabolite
Endpoint: metabolite peak area
UPLC-MS/MS, refers to: urea; C57BL/6 CES1-/- mice, EL4 tumour: 1.3e+08 a.u. and 1.44e+08 a.u. and 1.04e+08 a.u. and 9.52e+07 a.u. and 1.1e+08 a.u. and 1.22e+08 a.u.
UPLC-MS/MS metabolomics, refers to: fructose 1,6-bisphosphate; EL4, C57BL/6 CES1-/- mice, EL4 tumour, tumour: 1.24e+07 a.u. and 1.19e+07 a.u. and 1.02e+07 a.u. and 7.47e+06 a.u. and 9.45e+06 a.u. and 6.32e+06 a.u.
UPLC-MS/MS, refers to: dAMP; C57BL/6 CES1-/- mice, EL4 tumour: 124000 a.u. and 157000 a.u. and 122000 a.u. and 26800 a.u. and 73900 a.u. and 83900 a.u.
UPLC-MS/MS metabolomics, refers to: GABA; EL4, C57BL/6 CES1-/- mice, EL4 tumour, tumour: 2.71e+07 a.u. and 4.57e+07 a.u. and 3.04e+07 a.u. and 4.06e+07 a.u. and 5.11e+07 a.u. and 4.43e+07 a.u.

Sample 3
Structure (SMILES): Nc1cnc(N2CCc3cc(S(=O)(=O)Nc4c(F)cc(Cl)cc4F)cc(N4CCCC4=O)c32)nc1
Read-out: cell-free assay
Technique: competition with immobilised ligand
Tested at: 1 µM
Endpoint: remaining binding
Serine/threonine-protein kinase MARK1 (MARK1, Homo sapiens, UniProt Q9P0L2): 76%
Cyclin-dependent kinase 18 (CDK18, Homo sapiens, UniProt Q07002): 100%
Serine/threonine-protein kinase RIO1 (RIOK1, Homo sapiens, UniProt Q9BRS2): 100%
Leucine-rich repeat serine/threonine-protein kinase 2 (LRRK2, Homo sapiens, UniProt Q5S007): 97%
Transient receptor potential cation channel subfamily M member 6 (TRPM6, Homo sapiens, UniProt Q9BX84): 93%
Serine/threonine-protein kinase 17A (STK17A, Homo sapiens, UniProt Q9UEE5): 100%
Serine/threonine-protein kinase ULK2 (ULK2, Homo sapiens, UniProt Q8IYT8): 100%

Sample 4
Cell line: mouse MPNST tumor cells
Technique: high-content nuclear imaging
Refers to: cell number
Tested at: 10 µM
Time: 12 h
Setting: mean of 2 replicates
Relative to: plate mean
Direction: higher = more cells
Endpoint: nuclei count
CCN(C(=O)CO)[C@H]1CN(/C(=N\C#N)Nc2cccc(OC(F)F)c2)N=C1c1ccc(Cl)c(Cl)c1: 1.02 z-score
Cc1cn([C@H]2C[C@H](N=[N+]=[N-])[C@@H](CO)O2)c(=O)[nH]c1=O: -0.754 z-score
O=C(NC(Cc1cc(=O)[nH]c2ccccc12)C(=O)O)c1ccc(Cl)cc1 (centres unmarked): 2.57 z-score
CCOc1ccc2c(c1)C(C)=CC(C)(C)N2: -1.74 z-score
COc1ccc(C(Cl)=C(c2ccc(OC)cc2)c2ccc(OC)cc2)cc1: 3.02 z-score
COc1ccc2cc(OCC3(C(=O)O)CN(C(=O)c4ccc(F)cc4)C3)ccc2c1: 1.18 z-score
